{"data": "Published values from different studies", "EPHX2": "Bifunctional epoxide hydrolase 2 (EPHX2, Homo sapiens, UniProt P34913)", "Nr3c1": "Glucocorticoid receptor (Nr3c1, Rattus norvegicus, UniProt P06536)", "CHRM2": "Muscarinic acetylcholine receptor M2 (CHRM2, Homo sapiens, UniProt P08172)", "note": "Each line is one published result; not all experiments were run side by side. ± gives the spread as reported."}
{"target": "EPHX2", "measurement": "lipophilic ligand efficiency", "value": 6.5, "SMILES": "CN(C)C(=O)C1CCCN(C(=O)c2ccc(NC(=O)NC34CC5CC(C)(CC(C)(C5)C3)C4)cc2)C1 (centres unmarked)"}
{"target": "Nr3c1", "assay": "reporter gene, antagonist, MMTV-luciferase", "system": "T47D/A1-2", "setting": "10 µM, 24 h, together with: 5 nM dexamethasone", "how to read": "reference: maximal activity", "measurement": "remaining activity", "value": "89%", "SMILES": "CC(C)CCSc1nc2c([nH]1)c(=S)n(C)c(=O)n2C"}
{"target": "Unconventional myosin-Va (Gallus gallus, UniProt Q02440, D297C/G292C/I296C/S293C/V295G)", "assay": "van't Hoff analysis", "setting": "concentration not given, together with: 10 mM Mg2+", "measurement": "T∆S of ligand binding", "value": "0.2 ± 1.3 kcal/mol", "SMILES": "CNc1ccccc1C(=O)O[C@H]1C[C@H](n2cnc3c(N)ncnc32)O[C@@H]1COP(=O)(O)OP(=O)(O)O"}
{"target": "Lysine-specific histone demethylase 1A, with CoREST (KDM1A, Homo sapiens, UniProt O60341)", "assay": "inhibitor, LC-MS", "how to read": "reference: total FAD species", "measurement": "relative N-formyl-FAD adduct", "value": "6%", "SMILES": "O=C(Nc1cccc([C@@H]2C[C@H]2NC2CCC2)c1)c1ccccc1"}
{"target": "Heat shock protein 90, N-terminal domain (Plasmodium falciparum, UniProt Q8IC05)", "assay": "binding, SPR", "measurement": "kon", "value": "480 M⁻¹ s⁻¹", "SMILES": "CCOc1cccc(C(=O)Nc2ccc(-c3nc4ccccc4[nH]3)cc2)c1"}
{"target": "Prostaglandin G/H synthase 1 (PTGS1, Ovis aries, UniProt P05979)", "assay": "enzyme activity, inhibitor", "setting": "from IC50, T 300 K", "measurement": "binding free energy", "value": "-11.2 kcal/mol", "SMILES": "FC(F)(F)c1ccccc1/N=c1\\oc2ccccc2cc1-c1ccccc1"}
{"target": "CHRM2", "assay": "binding", "measurement": "kon", "value": "1.3e+06 M⁻¹ s⁻¹", "SMILES": "[3H]CC([3H])C(=O)NC1CN(CCCCC2CCN(CC(=O)N3c4ccccc4NC(=O)c4ccccc43)CC2)CCN(CCCOc2nsnc2C2=CCCN(C)C2)C1 (centres unmarked)"}
{"target": "EPHX2", "measurement": "lipophilic ligand efficiency", "value": 6.33, "SMILES": "CC12CC3CC(C)(C1)CC(NC(=O)Nc1ccc(C(=O)N4CCC(N)CC4)cc1)(C3)C2"}
{"target": "Rho-associated protein kinase 1 (ROCK1, Homo sapiens, UniProt Q13464)", "assay": "kinase activity, radiometric", "setting": "10 µM, together with: 10 µM ATP", "measurement": "remaining activity", "value": "80%", "SMILES": "CC1(C)CCN(Cc2ccc(C(=O)NC[C@]3(O)CCCN(c4cc(NCc5ccccc5)ncn4)C3)c(O)c2)CC1"}
{"target": "Catalase (Rattus norvegicus, UniProt P04762)", "system": "rat mitochondria", "setting": "10 µM, 15 and 30 min", "measurement": "catalase activity", "value": "increased", "SMILES": "O=C(/C=C/c1ccc(O)cc1)OCCCC[P+](c1ccccc1)(c1ccccc1)c1ccccc1"}
{"target": "Progesterone receptor (PGR, Homo sapiens, UniProt P06401)", "assay": "reporter gene, antagonist, MMTV-luciferase", "system": "T47D/A1-2", "setting": "10 µM, 24 h, together with: 5 nM progesterone", "how to read": "reference: maximal activity", "measurement": "remaining activity", "value": "82%", "SMILES": "CCCCCCCCSc1nc2c([nH]1)c(=O)n(C)c(=S)n2C"}
{"target": "EPHX2", "measurement": "lipophilic ligand efficiency", "value": 6.87, "SMILES": "CC12CC3CC(C)(C1)CC(NC(=O)Nc1ccc(C(=O)N4CCCC(C(=O)NO)C4)cc1)(C3)C2 (centres unmarked)"}
{"target": "Ephrin type-B receptor 4, extracellular domain (EPHB4, Homo sapiens, UniProt P54760)", "assay": "SPR", "setting": "pH 7.4, 25 °C", "measurement": "koff", "value": "0.0013 s⁻¹", "SMILES": "CC[C@H](C)[C@H](NC(=O)[C@@H]1CCCN1C(=O)CNC(=O)[C@H](CC(N)=O)NC(=O)[C@@H]1CCCN1C(=O)[C@H](CO)NC(=O)[C@H](Cc1ccccc1)NC(=O)[C@H](CC(C)C)NC(=O)[C@H](Cc1ccc(O)cc1)NC(=O)[C@H](CC(N)=O)NC(=O)[C@@H](N)[C@@H](C)O)C(=O)N[C@@H](C)C(=O)N[C@@H](CCCNC(=N)N)C(=O)N[C@@H](C)C(=O)N[C@@H](Cc1c[nH]c2ccccc12)C(N)=O"}
{"target": "Fatty-acid amide hydrolase 1 (FAAH, Homo sapiens, UniProt O00519)", "assay": "enzyme activity, inhibitor", "measurement": "kinact", "value": "0.000367 s⁻¹", "SMILES": "O=C(Nc1ccc(OC(F)(F)F)cc1)N1CCC(Cc2cccc(Oc3ccc(C(F)(F)F)cn3)c2)CC1"}
{"target": "Transient receptor potential cation channel subfamily A member 1 (TRPA1, Homo sapiens, UniProt O75762)", "assay": "ion current, inhibitor, whole-cell patch clamp", "system": "HEK-293T", "setting": "5 µM, +50 mV, together with: 100 µM AITC", "measurement": "current density", "value": "11.8 ± 1.2 pA/pF", "SMILES": "CCCC[C@H](C)/C=C(C)/C=C/C(=O)O"}
{"target": "Lysosomal acid glucosylceramidase (GBA1, Homo sapiens, UniProt P04062, R534H)", "setting": "90 min, together with: trypsin", "measurement": "intact protein remaining", "value": "50%", "SMILES": "O[C@H]1[C@H](O)[C@@H](O)[C@@H]2O[C@@H]2[C@@H]1O"}
{"target": "CUG–CAG duplex RNA", "assay": "SPR", "measurement": "residence time", "value": "256 s", "SMILES": "CCc1nc2cc3ccccc3cc2cc1C(=O)N[C@@H](CCCCN)C(=O)N[C@@H](C/C=C\\C[C@H](NC(=O)[C@H](CCCCN)NC(=O)c1cc2cc3ccccc3cc2nc1CC)C(=O)N1CCC[C@H]1C(=O)NCCCN)C(=O)N1CCC[C@H]1C(=O)NCCCN"}
{"target": "Lysosomal acid glucosylceramidase (GBA1, Homo sapiens, UniProt P04062)", "assay": "enzyme activity, irreversible inhibitor", "setting": "pH 5.5, 37 °C, together with: 2,4-dinitrophenyl beta-D-glucopyranoside", "measurement": "kinact/Ki", "value": "3170 M⁻¹ s⁻¹", "SMILES": "CCCCCCCCCCCCNP(=O)(Oc1ccccc1)O[C@@H]1O[C@H](CO)[C@@H](O)[C@H](O)[C@H]1F (mixture of isomers)"}
{"target": "CDC34, with ubiquitin (Homo sapiens, UniProt P49427)", "assay": "biochemical", "setting": "concentration not given", "measurement": "activity", "value": "inactive", "SMILES": "COCC(=O)N[C@@H](Cc1ccc(-c2cccc(OCc3ccccc3)c2)cc1)[C@H](O)[C@@H](O)C(=O)O"}
{"target": "CHRM2", "assay": "recovery of [3H]NMS binding after washing", "system": "membranes", "setting": "100 µM", "measurement": "dissociation half-time", "value": "2 ± 0.2 h", "SMILES": "CCCCCCOc1ccc(C(=O)OCCN2CC=CCC2)cc1"}
{"target": "Dual specificity mitogen-activated protein kinase kinase 6 (MAP2K6, Homo sapiens, UniProt P52564)", "assay": "DNA-templated library selection", "setting": "one selection round", "measurement": "enrichment factor", "value": 2.2, "SMILES": "NC(=O)C1CCNC(=O)C(Cc2ccc([N+](=O)[O-])cc2)NC(=O)C(Cc2ccco2)NC(=O)C(CC2CC2)NC(=O)C=CC(=O)N1 (centres unmarked)"}
{"target": "Atrial natriuretic peptide receptor 2 (NPR2, Homo sapiens, UniProt P20594)", "assay": "HTRF, refers to: cGMP", "system": "HEK293 overexpressing GC-B", "setting": "together with: subthreshold CNP", "how to read": "reference: saturating CNP", "measurement": "Emax", "value": "86%", "SMILES": "N#CCCN1CCN(C(=S)c2ccc(-c3ccc(F)cc3)o2)CC1"}
{"target": "Inositol 1,4,5-trisphosphate-gated calcium channel ITPR1, IP3-binding core (Itpr1, Rattus norvegicus, UniProt P29994)", "assay": "binding, 3H-IP3 competition", "setting": "IP3-binding core IBC", "measurement": "Hill coefficient", "value": "0.8 ± 0.1", "SMILES": "O=P(O)(O)O[C@@H]1[C@@H](O)[C@H](O)[C@H](O)[C@H](O)[C@H]1OP(=O)(O)O"}
{"target": "TPM1/ACTA1, with F-actin (Oryctolagus cuniculus, UniProt P58772+P68135)", "assay": "binding, LSPR", "setting": "pH 7.0, together with: F-actin-tropomyosin filaments", "measurement": "kon", "value": "3850 ± 699 M⁻¹ s⁻¹", "SMILES": "CC(C)[C@H](NC(=O)[C@H](CCCCN)NC(=O)[C@H](C)NC(=O)[C@H](CCCCN)NC(=O)CNC(=O)[C@H](CCCNC(=N)N)NC(=O)[C@@H](NC(=O)[C@H](CCCCN)NC(=O)[C@@H](N)CO)[C@@H](C)O)C(=O)N[C@H](C(=O)NCC(=O)N[C@@H](CS)C(=O)N[C@@H](Cc1c[nH]c2ccccc12)C(=O)N[C@@H](CCCCN)C(=O)O)[C@@H](C)O"}
{"target": "GTPase KRas, GppNHp-bound (KRAS, Homo sapiens, UniProt P01116, C118S/G12C)", "assay": "MALDI-TOF MS", "setting": "15 min, GppNHp-loaded", "measurement": "covalent modification", "value": "100%", "SMILES": "C=CC(=O)N1C[C@H](C)N(c2nc(OC[C@@]34CCCN3C[C@H](F)C4)nc3c(F)c(-c4ccc(F)c5sc(N)c(C#N)c45)c(C(F)(F)F)cc23)C[C@H]1C"}
{"target": "Alpha-glucosidase MAL12 (MAL12, Saccharomyces cerevisiae S288c, UniProt P53341)", "assay": "fluorescence quenching", "setting": "concentration not given, 310 K", "measurement": "number of binding sites", "value": 1.02, "SMILES": "C=C1C(=O)O[C@@H]2[C@H]3C(CO)=CC(=O)C3=C(C)C[C@H](OC(=O)Cc3ccc(O)cc3)[C@@H]12"}
{"target": "Glutamate carboxypeptidase 2 (FOLH1, Homo sapiens, UniProt Q04609)", "assay": "PET/CT", "system": "human, primary prostate lesion", "measurement": "SUVmax", "value": "~29.7", "SMILES": "O=C([O-])CN1CCN(CC(=O)[O-])CCN(C(CCC(=O)NCCCCCN(CCCC[C@H](NC(=O)N[C@@H](CCC(=O)O)C(=O)O)C(=O)O)C(=O)c2ccc(I)cc2)C(=O)O)CCN(CC(=O)[O-])CC1.[68Ga+3] (some centres unmarked)"}
{"target": "Nr3c1", "assay": "reporter gene, antagonist, MMTV-luciferase", "system": "T47D/A1-2", "setting": "10 µM, 24 h, together with: 5 nM dexamethasone", "how to read": "reference: maximal activity", "measurement": "remaining activity", "value": "80%", "SMILES": "CC(C)CSc1nc2c([nH]1)c(=S)n(C)c(=O)n2C"}
{"target": "CHRM2", "assay": "allosteric modulator", "setting": "together with: [3H]NMS", "measurement": "log cooperativity factor", "value": "0.73 ± 0.16", "SMILES": "C=CCn1c(=O)c2ccccc2n2c(SCC(=O)Nc3ccc(NC(C)=O)cc3)nnc12"}
{"target": "WD repeat-containing protein 5 (WDR5, Homo sapiens, UniProt P61964)", "assay": "binding, SPR", "measurement": "kon", "value": "370000 M⁻¹ s⁻¹", "SMILES": "CC[C@H](C)[C@H](N)C(=O)N[C@@H](CC(N)=O)C(=O)N1CCC[C@H]1C(=O)N[C@H](C(=O)NCC(=O)N[C@@H](CS)C(=O)N[C@@H](C)C(=O)N[C@@H](CCCNC(=N)N)C(=O)N[C@@H](CO)C(=O)N[C@@H](CCC(=O)O)C(=O)N1CCC[C@H]1C(=O)N[C@@H](CCCCN)C(=O)N[C@H](C(=O)N[C@@H](CC(C)C)C(N)=O)[C@@H](C)CC)[C@@H](C)O"}
{"target": "Coagulation factor XI (F11, Homo sapiens, UniProt P03951)", "assay": "enzyme activity, inhibitor", "setting": "100 µM, together with: S-2366 substrate", "measurement": "Km", "value": "280 ± 90 µM", "SMILES": "Cc1ccc(C(=O)Nc2ccc(CP(=O)(O)O)cc2CP(=O)(O)O)cc1NC(=O)c1cccc(NC(=O)Nc2cccc(C(=O)Nc3cc(C(=O)Nc4ccc(CP(=O)(O)O)cc4CP(=O)(O)O)ccc3C)c2)c1"}
{"target": "Albumin (ALB, Bos taurus, UniProt P02769)", "assay": "fluorescence quenching titration", "setting": "concentration not given, 301 K", "measurement": "number of binding sites", "value": 1.09, "SMILES": "Cc1ccc2ccc3ccc(C)nc3c2n1.Cc1ccc2ccc3ccc(C)nc3c2n1.O.[Cl-].[Cl-].[Cl-].[Yb+3]"}
